Measured values of several laboratories.
Every numbered part comes from another study and shows a few of its results, in no order.

Study 1
Target: Histone acetyltransferase KAT6A, winged helix 2, GST fusion (KAT6A, Homo sapiens, UniProt Q92794, residues 85-181)
Technique: protein binding microarray
Form: double-stranded DNA, one strand shown
Medium: in vitro
Tested at: not given
Setting: 8-mer, flanks averaged, mean of 2 arrays, mostly near background
Relative to: not given
Reading: higher = stronger binding
Residues (chain): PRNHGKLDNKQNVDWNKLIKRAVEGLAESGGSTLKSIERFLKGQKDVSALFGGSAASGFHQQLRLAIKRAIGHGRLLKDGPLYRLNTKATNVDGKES
| Strand | E-score |
| --- | --- |
| TAAATCCA | 0.00671 |
| ATCCCTAA | -0.143 |
| TATGGGAA | -0.0324 |

Study 2
Target: RING finger protein unkempt homolog, zinc fingers 1-6, GST-SBP tag (UNK, Homo sapiens, UniProt Q9C0B0, residues 30-357)
Sequence of UniProt Q9C0B0 (30-357, looked up): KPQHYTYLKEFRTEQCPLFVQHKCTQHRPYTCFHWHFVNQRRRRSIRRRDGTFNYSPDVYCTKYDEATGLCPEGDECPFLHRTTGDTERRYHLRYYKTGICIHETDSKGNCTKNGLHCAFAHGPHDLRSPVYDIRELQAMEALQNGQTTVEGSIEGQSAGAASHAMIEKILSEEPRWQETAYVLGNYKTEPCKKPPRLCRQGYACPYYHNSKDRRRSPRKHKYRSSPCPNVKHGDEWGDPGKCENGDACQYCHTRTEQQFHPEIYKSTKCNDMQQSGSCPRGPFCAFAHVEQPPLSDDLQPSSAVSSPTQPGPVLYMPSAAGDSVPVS
Technique: RNA Bind-n-Seq
Form: RNA
Medium: in vitro
Tested at: not given
Setting: RNA with constant flanks, human and mouse sites, ends assumed
Relative to: input RNA pool
Reading: higher = stronger binding
| Strand | bound/input enrichment [ratio] |
| --- | --- |
| GGGAGUUCUACAGUCCGACGAUCUGCUUUCUAUCUCUGGGAAAAAGGAGCAGCAUUUGGCCAUGUUCUUUUGUUUUUCUAUUCCUGUCCCAAAUCAAAGAGCAUGGUUCUCAGGAAAACCAGUUCCCCAGUUUAAAAAAAAAACAACAGAGGAUUGAGCAUCA | 0.182 |
| GGGAGUUCUACAGUCCGACGAUCUAUUAUGGAAUACCAAAGUGAAGGGAUUUUGUCAUUCAGCAGACUGUUUCAUAUCCAGAAUAGUUCUUCCCUUACCCUUUCAGUCAUAAUUAAAAACCUAAGCUUUCUGGUAAAGUAGGACAACAGAGGAUUGAGCAUCA | 0.439 |
| GGGAGUUCUACAGUCCGACGAUCAAUAUGGUUCGUCAUUCUUCGUCUCCAUAUGUAUUGUAUCCACCUGAUAAGCCUUUCCUUAACAGUGAUCUGAGACGCUCCCCAAAUAAGCCCACAUUUGCCUAUCCGGAAAGCAACAGCCAACAGAGGAUUGAGCAUCA | 0.14 |

Study 3
Target: Interferon regulatory factor 3, full length, phosphomimetic (IRF3, Homo sapiens, UniProt Q14653, residues 1-427, S386D/S396D/S398D/S402D/T404D/S405D)
Technique: protein-binding microarray
Form: double-stranded DNA, one strand shown
Medium: in vitro
Tested at: 2540 nM top
Setting: 60-bp whole probe
Together with: salmon DNA 0.4 mg/ml
Relative to: random background probes
Reading: higher = stronger binding
Residues (chain): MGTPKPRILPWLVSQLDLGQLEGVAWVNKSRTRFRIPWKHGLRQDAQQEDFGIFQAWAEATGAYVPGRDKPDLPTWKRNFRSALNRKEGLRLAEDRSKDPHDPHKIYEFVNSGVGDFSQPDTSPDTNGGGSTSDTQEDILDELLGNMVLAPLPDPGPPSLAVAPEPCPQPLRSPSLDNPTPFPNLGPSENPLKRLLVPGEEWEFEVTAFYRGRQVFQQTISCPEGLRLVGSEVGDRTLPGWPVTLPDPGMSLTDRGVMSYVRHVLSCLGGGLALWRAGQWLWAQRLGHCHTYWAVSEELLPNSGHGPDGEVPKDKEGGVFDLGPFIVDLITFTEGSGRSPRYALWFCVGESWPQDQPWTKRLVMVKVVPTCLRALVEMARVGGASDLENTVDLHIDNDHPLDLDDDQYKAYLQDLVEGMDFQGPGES
| Strand | fitted relative affinity [z-score] |
| --- | --- |
| GCCTAGCACTTAGATATCGGGACTGGGTTAGTGCTAGTCTTGATTCGCTTGACGCTGCTG | -0.086 |
| GCCTAGCACTCATGCTTGTATCTGGGACTGTGCTAGGTCTTGATTCGCTTGACGCTGCTG | -0.37 |
| GCCTAGCACGACGGTTTCGACACTGGGGCCGTGCTAGTCTTGATTCGCTTGACGCTGCTG | 2.83 |

Mixed results
| Molecule | target | assay | system | setting | how to read | measurement | result |
| --- | --- | --- | --- | --- | --- | --- | --- |
| PhoQ, residues 284 288 289 292 302 303 SSTMSV | PhoP, residues 12 14 15 18 19 QYCSL (Escherichia coli, UniProt P23836) | Sort-seq, refers to: YFP reporter | E. coli | PhoQ-PhoP variant library, together with: 10 µM Mg2+ | relative to: high Mg2+ state, higher = stronger signaling | fold induction | 1.69 |

Repeated from above (study 2):
| Strand | bound/input enrichment [ratio] |
| --- | --- |
| GGGAGUUCUACAGUCCGACGAUCUGCUUUCUAUCUCUGGGAAAAAGGAGCAGCAUUUGGCCAUGUUCUUUUGUUUUUCUAUUCCUGUCCCAAAUCAAAGAGCAUGGUUCUCAGGAAAACCAGUUCCCCAGUUUAAAAAAAAAACAACAGAGGAUUGAGCAUCA | 0.182 |
| GGGAGUUCUACAGUCCGACGAUCUAUUAUGGAAUACCAAAGUGAAGGGAUUUUGUCAUUCAGCAGACUGUUUCAUAUCCAGAAUAGUUCUUCCCUUACCCUUUCAGUCAUAAUUAAAAACCUAAGCUUUCUGGUAAAGUAGGACAACAGAGGAUUGAGCAUCA | 0.439 |
